Measured values collected from several papers.
Lines come from different studies, so protocols differ. ± marks the error that the study gave.
ipgm-1: ipgm-1 (Brugia malayi, UniProt Q4VWF8)
Sequence of UniProt Q4VWF8 (whole entry, looked up): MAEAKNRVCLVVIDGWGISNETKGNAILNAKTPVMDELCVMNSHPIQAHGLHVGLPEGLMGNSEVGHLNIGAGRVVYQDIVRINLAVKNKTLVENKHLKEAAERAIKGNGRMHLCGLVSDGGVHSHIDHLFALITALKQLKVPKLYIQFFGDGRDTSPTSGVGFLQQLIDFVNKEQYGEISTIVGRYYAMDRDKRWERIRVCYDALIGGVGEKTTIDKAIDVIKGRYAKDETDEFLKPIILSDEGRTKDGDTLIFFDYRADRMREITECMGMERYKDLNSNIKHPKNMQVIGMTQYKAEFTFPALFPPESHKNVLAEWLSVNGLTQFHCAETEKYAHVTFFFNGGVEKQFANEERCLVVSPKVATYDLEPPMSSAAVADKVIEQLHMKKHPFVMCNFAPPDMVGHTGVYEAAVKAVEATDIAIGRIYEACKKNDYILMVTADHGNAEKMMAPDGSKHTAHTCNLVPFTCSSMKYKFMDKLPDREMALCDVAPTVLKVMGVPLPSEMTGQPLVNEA
Sequence of UniProt P07237 (whole entry, looked up): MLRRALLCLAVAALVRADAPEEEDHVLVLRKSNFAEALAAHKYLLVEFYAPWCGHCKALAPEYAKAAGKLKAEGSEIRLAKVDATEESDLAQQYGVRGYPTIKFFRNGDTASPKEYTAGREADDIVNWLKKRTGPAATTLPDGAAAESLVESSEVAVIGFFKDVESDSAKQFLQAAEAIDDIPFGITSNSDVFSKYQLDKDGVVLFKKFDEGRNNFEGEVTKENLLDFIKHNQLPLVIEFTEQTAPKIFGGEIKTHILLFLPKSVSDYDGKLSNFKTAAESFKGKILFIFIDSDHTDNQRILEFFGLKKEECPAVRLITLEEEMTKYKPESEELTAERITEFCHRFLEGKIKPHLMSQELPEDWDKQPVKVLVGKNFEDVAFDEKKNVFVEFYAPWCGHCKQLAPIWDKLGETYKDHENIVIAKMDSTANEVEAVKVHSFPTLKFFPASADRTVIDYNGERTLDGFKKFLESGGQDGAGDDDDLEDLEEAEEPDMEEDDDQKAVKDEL
Sequence of UniProt P25440 (whole entry, looked up): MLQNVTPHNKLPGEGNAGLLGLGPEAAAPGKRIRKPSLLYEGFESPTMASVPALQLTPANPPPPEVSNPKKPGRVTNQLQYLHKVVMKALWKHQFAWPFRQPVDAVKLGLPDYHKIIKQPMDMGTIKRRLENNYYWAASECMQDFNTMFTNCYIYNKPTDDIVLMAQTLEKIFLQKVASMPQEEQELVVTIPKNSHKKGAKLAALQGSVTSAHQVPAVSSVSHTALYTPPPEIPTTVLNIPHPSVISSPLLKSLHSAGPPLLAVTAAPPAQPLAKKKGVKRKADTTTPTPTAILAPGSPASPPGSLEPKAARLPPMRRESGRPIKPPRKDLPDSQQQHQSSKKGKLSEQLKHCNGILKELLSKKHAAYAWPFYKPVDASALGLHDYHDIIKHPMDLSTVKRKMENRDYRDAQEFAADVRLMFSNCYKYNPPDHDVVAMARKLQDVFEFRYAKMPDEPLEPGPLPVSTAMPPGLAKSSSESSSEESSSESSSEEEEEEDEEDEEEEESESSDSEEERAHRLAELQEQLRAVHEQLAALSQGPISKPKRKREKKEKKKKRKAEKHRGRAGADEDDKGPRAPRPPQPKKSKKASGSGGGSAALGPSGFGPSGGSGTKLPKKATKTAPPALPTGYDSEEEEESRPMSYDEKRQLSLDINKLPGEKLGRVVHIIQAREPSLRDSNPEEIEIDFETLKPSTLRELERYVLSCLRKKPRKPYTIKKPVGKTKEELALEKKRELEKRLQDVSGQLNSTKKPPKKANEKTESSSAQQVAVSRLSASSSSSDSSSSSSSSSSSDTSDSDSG
Sequence of UniProt Q9HB29 (whole entry, looked up): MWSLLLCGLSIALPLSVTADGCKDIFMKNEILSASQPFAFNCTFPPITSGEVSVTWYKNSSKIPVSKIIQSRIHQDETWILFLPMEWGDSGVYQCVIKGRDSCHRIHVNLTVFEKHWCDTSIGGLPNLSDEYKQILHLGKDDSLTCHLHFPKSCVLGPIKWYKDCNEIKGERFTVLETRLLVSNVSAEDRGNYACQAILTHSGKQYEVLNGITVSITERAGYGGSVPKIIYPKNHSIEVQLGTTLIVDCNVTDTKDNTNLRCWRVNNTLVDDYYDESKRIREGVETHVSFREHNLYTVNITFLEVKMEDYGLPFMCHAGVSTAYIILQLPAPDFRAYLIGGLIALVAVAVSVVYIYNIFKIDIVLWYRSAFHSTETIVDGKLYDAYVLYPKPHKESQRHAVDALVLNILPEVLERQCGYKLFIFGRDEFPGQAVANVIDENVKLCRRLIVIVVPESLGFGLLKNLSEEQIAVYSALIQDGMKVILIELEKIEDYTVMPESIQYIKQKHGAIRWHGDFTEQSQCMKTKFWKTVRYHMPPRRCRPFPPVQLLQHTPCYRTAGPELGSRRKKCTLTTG
Sequence of UniProt P06971 (whole entry, looked up): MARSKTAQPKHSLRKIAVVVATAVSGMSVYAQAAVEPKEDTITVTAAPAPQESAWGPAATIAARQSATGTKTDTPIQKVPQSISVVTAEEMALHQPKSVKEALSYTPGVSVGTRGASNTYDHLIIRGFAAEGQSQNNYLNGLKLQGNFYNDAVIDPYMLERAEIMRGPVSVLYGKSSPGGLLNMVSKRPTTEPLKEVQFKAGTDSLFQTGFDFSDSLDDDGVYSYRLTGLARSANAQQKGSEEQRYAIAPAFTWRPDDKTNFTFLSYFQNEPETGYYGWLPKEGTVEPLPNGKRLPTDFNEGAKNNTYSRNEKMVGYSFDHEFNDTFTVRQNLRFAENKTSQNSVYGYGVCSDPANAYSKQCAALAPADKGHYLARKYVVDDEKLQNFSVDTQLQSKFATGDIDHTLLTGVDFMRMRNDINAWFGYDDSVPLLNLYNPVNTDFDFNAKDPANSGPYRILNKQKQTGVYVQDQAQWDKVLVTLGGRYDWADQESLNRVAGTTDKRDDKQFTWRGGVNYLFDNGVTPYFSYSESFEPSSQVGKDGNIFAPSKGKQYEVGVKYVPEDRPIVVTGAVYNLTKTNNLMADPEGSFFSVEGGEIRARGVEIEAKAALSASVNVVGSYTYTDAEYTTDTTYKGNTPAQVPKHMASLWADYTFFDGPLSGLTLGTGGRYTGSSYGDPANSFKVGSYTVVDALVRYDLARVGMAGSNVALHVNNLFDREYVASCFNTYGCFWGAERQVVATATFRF
Sequence of UniProt P05177 (whole entry, looked up): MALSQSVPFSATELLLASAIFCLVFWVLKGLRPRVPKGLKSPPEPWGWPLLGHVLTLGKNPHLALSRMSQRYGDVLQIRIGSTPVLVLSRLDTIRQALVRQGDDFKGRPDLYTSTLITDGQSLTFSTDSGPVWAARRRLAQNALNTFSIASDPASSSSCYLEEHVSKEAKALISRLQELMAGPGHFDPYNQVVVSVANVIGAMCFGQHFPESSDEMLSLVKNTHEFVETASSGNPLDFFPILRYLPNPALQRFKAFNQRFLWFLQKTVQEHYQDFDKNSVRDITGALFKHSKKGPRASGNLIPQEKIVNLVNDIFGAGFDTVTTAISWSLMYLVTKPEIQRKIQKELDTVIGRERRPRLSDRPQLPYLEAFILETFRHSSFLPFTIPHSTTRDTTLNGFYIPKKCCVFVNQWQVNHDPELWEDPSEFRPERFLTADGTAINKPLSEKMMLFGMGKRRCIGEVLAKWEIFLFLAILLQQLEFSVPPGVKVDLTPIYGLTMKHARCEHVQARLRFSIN
Sequence of UniProt Q9UER7 (55-144, looked up): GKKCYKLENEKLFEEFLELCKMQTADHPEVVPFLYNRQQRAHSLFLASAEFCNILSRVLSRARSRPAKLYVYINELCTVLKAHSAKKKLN
Sequence of UniProt O66465 (whole entry, unmodified, looked up): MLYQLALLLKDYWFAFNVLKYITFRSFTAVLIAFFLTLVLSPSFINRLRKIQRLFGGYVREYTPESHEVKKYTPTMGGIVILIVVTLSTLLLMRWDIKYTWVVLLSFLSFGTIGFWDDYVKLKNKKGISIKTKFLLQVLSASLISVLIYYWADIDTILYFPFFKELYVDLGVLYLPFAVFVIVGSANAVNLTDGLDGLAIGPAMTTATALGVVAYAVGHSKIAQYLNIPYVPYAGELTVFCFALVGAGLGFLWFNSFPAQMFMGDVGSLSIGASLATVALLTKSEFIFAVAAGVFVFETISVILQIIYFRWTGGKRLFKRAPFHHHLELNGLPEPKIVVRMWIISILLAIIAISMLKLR
Sequence of UniProt Q9Y657 (whole entry, looked up): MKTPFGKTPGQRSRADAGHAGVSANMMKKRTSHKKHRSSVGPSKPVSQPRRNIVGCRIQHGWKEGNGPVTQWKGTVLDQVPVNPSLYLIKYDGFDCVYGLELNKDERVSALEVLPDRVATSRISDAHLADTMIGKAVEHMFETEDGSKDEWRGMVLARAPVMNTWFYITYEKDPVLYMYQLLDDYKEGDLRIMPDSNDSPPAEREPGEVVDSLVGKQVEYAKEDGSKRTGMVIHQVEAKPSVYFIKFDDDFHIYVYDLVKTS
Sequence of UniProt O15393 (whole entry, unmodified, looked up): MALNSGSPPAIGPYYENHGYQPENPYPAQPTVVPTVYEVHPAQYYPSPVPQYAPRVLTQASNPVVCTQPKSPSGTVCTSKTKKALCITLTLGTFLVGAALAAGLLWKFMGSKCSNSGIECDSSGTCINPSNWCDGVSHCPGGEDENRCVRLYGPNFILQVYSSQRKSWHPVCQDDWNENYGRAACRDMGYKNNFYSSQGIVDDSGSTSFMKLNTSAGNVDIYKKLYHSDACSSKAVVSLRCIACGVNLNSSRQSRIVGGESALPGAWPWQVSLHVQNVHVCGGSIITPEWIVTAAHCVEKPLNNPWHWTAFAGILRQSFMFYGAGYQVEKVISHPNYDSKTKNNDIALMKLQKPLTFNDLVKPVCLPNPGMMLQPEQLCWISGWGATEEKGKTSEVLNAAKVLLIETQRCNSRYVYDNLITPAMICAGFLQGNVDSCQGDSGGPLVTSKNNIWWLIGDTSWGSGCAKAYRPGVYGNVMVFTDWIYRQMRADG

SMILES | tested on | test | system | conditions | scale | endpoint | result
CC(C)(C)c1cc(C(C)(C)C)c(-n2cc(-c3cnc4ccccc4c3O)nn2)cc1O | CFTR (Homo sapiens, UniProt P13569, G551D) | short-circuit current, potentiator | FRT CFTR G551D | together with: forskolin 10 µM |  | EC50 | inactive
CC[C@H](C)[C@H](NC(=O)[C@H](Cc1c[nH]cn1)NC(=O)[C@H](CCCCNC(=O)[C@@H](NC(=O)[C@H](CCCCN)NC(=O)CSC[C@H](NC(=O)[C@H](Cc1ccccc1)NC(=O)[C@H](CCCCNC(=O)[C@H](CC(C)C)NC(=O)[C@H](CCCCN)NC(=O)[C@H](CCCCN)NC(=O)CCS[C@@H]1O[C@H](CO)[C@H](O)[C@H](O)[C@H]1O)NC(=O)[C@H](CC(C)C)NC(=O)[C@H](CCCCN)NC(=O)[C@H](CCCCN)NC(=O)C[C@@H]1O[C@@H](C)[C@@H](O)[C@@H](O)[C@@H]1O)C(N)=O)[C@@H](C)CC)NC(=O)[C@@H](NC(=O)[C@H](CCCCN)NC(=O)CSC[C@H](NC(=O)[C@H](Cc1ccccc1)NC(=O)[C@H](CCCCNC(=O)[C@H](CC(C)C)NC(=O)[C@H](CCCCN)NC(=O)[C@H](CCCCN)NC(=O)CCS[C@@H]1O[C@H](CO)[C@H](O)[C@H](O)[C@H]1O)NC(=O)[C@H](CC(C)C)NC(=O)[C@H](CCCCN)NC(=O)[C@H](CCCCN)NC(=O)C[C@@H]1O[C@@H](C)[C@@H](O)[C@@H](O)[C@@H]1O)C(N)=O)[C@@H](C)CC)C(N)=O | lecB (Pseudomonas aeruginosa, UniProt Q9HYN5) | binding, ITC |  | pH 7.5 |  | Kd | 0.327 µM
CC(C)[C@@H]1NC(=O)[C@H](Cc2ccccc2)NC(=O)CSC[C@@H](C(N)=O)NC(=O)[C@H](CCC(=O)O)NC(=O)[C@H](CO)NC(=O)[C@H](Cc2c[nH]c3ccccc23)NC(=O)[C@H](C(C)C)NC(=O)[C@H](C(C)C)NC(=O)[C@H](Cc2ccc(O)cc2)NC(=O)[C@H](CC(=O)O)NC(=O)[C@H](Cc2c[nH]c3ccccc23)NC(=O)[C@H](Cc2ccc(O)cc2)NC(=O)[C@H](Cc2c[nH]c3ccccc23)NC(=O)[C@H](CCC(=O)O)NC1=O | Interleukin-1 receptor-like 2, D1-D2 domains (IL1RL2, Homo sapiens, UniProt Q9HB29) | SPR |  | IL-36R D1-D2 |  | Kd | 1.1 µM
O=C(NCc1ccc(Cl)cn1)C(=O)C(Cc1ccccc1)NC(=O)C1CC(F)CN1C(=O)C(NC(=O)C1CCC(F)(F)CC1)C1CCCCC1 (stereo not shown) | TMPRSS2 (Homo sapiens, UniProt O15393, Q253D/R252D/R255K/S251D/S254D) | binding |  |  |  | Kd | 10.1 µM
C[C@H](N)C(=O)N[C@@H](CCCNC(=N)N)C(=O)N[C@H](C(=O)N[C@@H](CCCC[N+](C)(C)C)C(=O)N[C@@H](CCC(N)=O)C(=O)N[C@H](C(=O)N[C@@H](C)C(=O)N[C@@H](CCCNC(=N)N(C)C)C(=O)N[C@@H](CCCCN)C(=O)N[C@@H](CO)C(=O)O)[C@@H](C)O)[C@@H](C)O | Spindlin-1 (SPIN1, Homo sapiens, UniProt Q9Y657) | binding, ITC |  | pH 7.5 |  | Kd | 0.045 µM
CC(C)CC(NC(=O)C(NC(=O)NC(C(=O)O)C(C)C)C1CCNC(=N)N1)C(=O)NCCCNC(C(=O)O)C(OC1OC(CN)C(O)C1O)C1OC(n2ccc(=O)[nH]c2=O)C(O)C1O (stereo not shown) | mraY (Aquifex aeolicus, UniProt O66465, H325A) | binding, ITC |  |  |  | Kd | 0.0244 µM
CCCCCCCC(=O)N[C@@H](CCCCNS(=O)(=O)c1cccc2c(N(C)C)cccc12)C(=O)N[C@H](C(=O)N[C@@H](CCN)C(=O)N[C@H]1CCNC(=O)[C@H]([C@@H](C)O)NC(=O)[C@H](CCN)NC(=O)[C@H](CCN)NC(=O)[C@H](CC(C)C)NC(=O)[C@@H](Cc2ccccc2)NC(=O)[C@H](CCN)NC1=O)[C@@H](C)O | Klebsiella pneumoniae ATCC 13883 lipopolysaccharide | fluorometric titration |  | pH 7.0 |  | Kd | 0.6 ± 0.1 µM
CC[C@H](C)[C@H](NC(=O)[C@H](CCC(=O)O)NC(=O)[C@H](CCC(=O)O)NC(=O)[C@H](CC(C)C)NC(=O)[C@H](CC(C)C)NC(=O)[C@]1(C)CCCC=CCCC[C@](C)(NC(=O)[C@H](CCCNC(=N)N)NC(=O)[C@H](CC(N)=O)NC(=O)[C@H](CCC(=O)O)NC(=O)[C@@H]2CCCN2C(=O)[C@H](CC(=O)O)NC(=O)[C@H](CC(N)=O)NC(=O)[C@H](CC(=O)O)NC(=O)[C@H](CC(=O)O)NC(=O)[C@@H](N)CO)C(=O)N[C@@H](C)C(=O)N[C@@H](CCCCN)C(=O)N[C@@H](CCCCN)C(=O)N1)C(=O)N[C@@H](CCCCN)C(=O)N[C@@H](C)C(=O)N[C@@H](CC(N)=O)C(=O)N[C@@H](CC(C)C)C(=O)N[C@@H](CO)C(=O)O | Death domain-associated protein 6, residues 55-144 (Homo sapiens, UniProt Q9UER7) | isothermal titration calorimetry |  | pH 7.5, 25 °C |  | Kd | 0.05 µM
Cc1ccc2c(N)c(C(=O)Nc3cccc(C(F)(F)F)c3)sc2n1 | HIV-1 TAR RNA hairpin, 2-AP at U25 | binding, 2-aminopurine fluorescence titration | PBS | pH 7.4, together with: 2-AP TAR RNA 500 nM |  | Kd | 2.4 µM
CC(C)[C@@H]1NC(=O)[C@H](CCCNC(=N)N)NC(=O)[C@H](Cc2ccc(O)cc2)NC(=O)[C@H](CO)NC(=O)[C@H](Cc2ccc(O)cc2)N(C)C(=O)[C@H](CC(N)=O)NC(=O)CNC(=O)[C@H](Cc2ccc(O)cc2)N(C)C(=O)[C@H](Cc2ccccc2)N(C)C(=O)[C@H](CC(=O)O)NC(=O)[C@H](Cc2ccc(O)cc2)NC(=O)[C@H](Cc2ccccc2)N(C)C(=O)[C@H](Cc2ccc(O)cc2)N(C)C(=O)[C@H](Cc2ccc(O)cc2)NC(=O)CSC[C@@H](C(N)=O)NC(=O)[C@@H]2CCCN2C1=O | ipgm-1 | enzyme activity, inhibitor, luminescent coupled-enzyme ATP |  |  |  | AC50 | 0.813 µM
O=C(O)COc1ccc(Cl)cc1 | PIN8 (Arabidopsis thaliana, UniProt Q9LFP6) | cell-free assay |  |  |  | Kd | 304 µM
C=CC[C@H]1OC(=O)CCNC(=O)[C@H](C)N(C)C(=O)[C@H]([C@@H](C)CC)N(C)C(=O)[C@H]([C@@H](C)CC)NC(=O)[C@@H]2[C@@H](C)CCN2C1=O | Platelet-derived growth factor receptor beta, extracellular domain (PDGFRB, Homo sapiens, UniProt P09619) | binding, microscale thermophoresis |  |  |  | Kd | ~5.43 µM
CCCCCc1cc(O)c2c(c1)OC(C)(C)C1CCC(C)=CC21 (single isomer, unassigned; (-)) | Cytochrome P450 1A2 (CYP1A2, Homo sapiens, UniProt P05177) | enzyme activity, inhibitor | microsomes from HEK293 cells | pH 7.4, together with: phenacetin |  | Ki | 2.1 ± 0.62 µM
CC[C@H](C)[C@H](NC(=O)[C@H](Cc1ccc(O)cc1)NC(=O)[C@H](CCCNC(=N)N)NC(=O)[C@H](Cc1ccc(O)cc1)NC(=O)[C@H](CCSC)NC(C)=O)C(=O)N[C@H]1CSCc2cccc(c2)CSC[C@@H](C(=O)N[C@@H](CC(C)C)C(=O)N[C@@H](C)C(=O)N[C@@H](CO)C(=O)N[C@@H](Cc2ccc(O)cc2)C(=O)NCC(=O)N[C@@H](CO)C(=O)NCC(=O)N[C@@H](CO)C(=O)NCC(=O)N[C@@H](CO)C(=O)N[C@@H](CC(=O)O)C(=O)N[C@@H](Cc2ccc(O)cc2)C(=O)N[C@@H](CCCCN)C(=O)N[C@@H](CC(=O)O)C(=O)N[C@@H](CC(=O)O)C(=O)N[C@@H](CC(=O)O)C(=O)N[C@@H](CC(=O)O)C(=O)N[C@@H](CCCCN)C(N)=O)NC(=O)[C@H](CC(N)=O)NC(=O)[C@H](CO)NC(=O)[C@H](CC(C)C)NC(=O)[C@H]([C@@H](C)O)NC1=O | FGFR1 (Homo sapiens, UniProt P11362) | binding, BLI |  |  |  | Kd | > 10 µM
CCC(C(=O)OC)C1N=C(c2ccc(Cl)cc2)c2cc(OC)ccc2-n2c(C)nnc21 (stereo not shown) | Bromodomain-containing protein 2, tandem bromodomains (BRD2, Homo sapiens, UniProt P25440) | binding, isothermal titration calorimetry |  | 30 °C, tandem bromodomains, no binding |  | Kd | > 10 µM
COc1ccc(C[C@H]2C(=O)N[C@@H](CC(N)=O)C(=O)N[C@@H](CC(=O)O)C(=O)N[C@@H](CO)C(=O)NCC(=O)N[C@@H](Cc3c[nH]c4ccccc34)C(=O)N(C)[C@@H](Cc3ccc(O)cc3)C(=O)N[C@@H](CC(N)=O)C(=O)N[C@@H]([C@@H](C)O)C(=O)N(C)[C@@H](Cc3ccccc3)C(=O)N[C@H](C(N)=O)CSCC(=O)N[C@@H](Cc3ccc(O)cc3)C(=O)N2C)cc1 | ipgm-1 | enzyme activity, inhibitor, luminescent coupled-enzyme ATP |  |  |  | AC50 | > 76.8 µM
N[C@@H](Cc1ccccc1)P(=O)(O)O | PAL1 (Petroselinum crispum, UniProt P24481, Y110F) | ITC |  | pH 8.0, 30 °C |  | Kd | 8.9 µM
N=C(N)NCCC[C@@H]1NC(=O)[C@H](CCCCNC(=O)CCOCCOCCOCCOCCNC(=O)CC[C@H](NC(=O)CCOCCOCCOCCOCCNC(=O)CC[C@H](NC(=O)CN2CCN(CC(=O)O)CCN(CC(=O)O)CCN(CC(=O)O)CC2)C(=O)NCCOCCOCCOCCOCCC(=O)N[C@@H](CCC(=O)NCCOCCOCCOCCOCCC(=O)NCCCC[C@@H]2NC(=O)[C@@H](Cc3ccccc3)NC(=O)[C@H](CC(=O)O)NC(=O)CNC(=O)[C@H](CCCNC(=N)N)NC2=O)C(=O)NCCOCCOCCOCCOCCC(=O)NCCCC[C@@H]2NC(=O)[C@@H](Cc3ccccc3)NC(=O)[C@H](CC(=O)O)NC(=O)CNC(=O)[C@H](CCCNC(=N)N)NC2=O)C(=O)NCCOCCOCCOCCOCCC(=O)NCCCC[C@@H]2NC(=O)[C@@H](Cc3ccccc3)NC(=O)[C@H](CC(=O)O)NC(=O)CNC(=O)[C@H](CCCNC(=N)N)NC2=O)NC(=O)[C@@H](Cc2ccccc2)NC(=O)[C@H](CC(=O)O)NC(=O)CNC1=O [indium-111 labelled] |  |  | athymic nude mice, female, U-87 MG glioma xenograft, tumour and lungs | intravenous, 24 h | reference: tumour over lungs | tumour to tissue ratio | 4.68 ± 1.72
CN[C@](C)(C[18F])C(=O)O | MDA-MB-468 tumour model |  | host not given, tumour | 30 min, tumour-bearing |  | tracer uptake | 2.3 %ID/g
CC(C)C[C@H](NC(=O)[C@H](C)NC(=O)[C@H](CCCCN)NC(=O)[C@H](CCCNC(=N)N)NC(=O)[C@H](CCC(=O)O)NC(=O)[C@H](C)NC(=O)[C@H](CCC(=O)O)NC(=O)[C@H](CCCCN)NC(=O)[C@H](CCCCN)NC(=O)[C@H](CC(=O)O)NC(=O)[C@H](Cc1c[nH]cn1)NC(=O)[C@H](CC(=O)O)NC(=O)[C@H](C)NC(=O)[C@H](C)NC(=O)[C@H](CCC(=O)O)NC(=O)[C@H](CO)NC(=O)[C@H](CCCCN)NC(=O)[C@H](CC(C)C)NC(=O)[C@H](CCCNC(=N)N)NC(=O)[C@H](CCC(=O)O)NC(=O)[C@H](CC(C)C)NC(=O)[C@H](CCC(=O)O)NC(=O)[C@H](C)NC(=O)[C@H](CCC(=O)O)NC(=O)[C@H](CCC(=O)O)NC(=O)[C@H](Cc1c[nH]cn1)NC(=O)[C@H](CCCNC(=N)N)NC(=O)[C@H](CCC(=O)O)NC(=O)[C@H](CC(N)=O)NC(=O)[C@H](CCCCN)NC(=O)[C@H](CC(C)C)NC(=O)[C@H](CCCNC(=N)N)NC(=O)[C@H](CCC(N)=O)NC(=O)[C@H](CC(C)C)NC(=O)[C@H](CCC(=O)O)NC(=O)[C@H](C)NC(=O)[C@H](CC(=O)O)NC(=O)[C@H](C)NC(=O)[C@@H](NC(=O)[C@H](CC(C)C)NC(=O)[C@H](CCCCN)NC(=O)[C@H](CCC(=O)O)NC(=O)[C@@H](NC(=O)[C@H](CO)NC(=O)CN)C(C)C)[C@@H](C)O)C(=O)N[C@@H](CCC(=O)O)C(=O)N[C@@H](CC(=O)O)C(=O)N[C@@H](CCCCN)C(=O)N[C@@H](CC(C)C)C(=O)N[C@@H](C)C(=O)N[C@@H](CC(=O)O)C(=O)N[C@@H](Cc1ccc(O)cc1)C(=O)O | Plasminogen, kringle 2 domain (PLG, Homo sapiens, UniProt P00747, C188G/E240D/L256Y) | isothermal titration calorimetry | K2-plasminogen | pH 7.4, 25 °C |  | Kd | 0.042 ± 0.004 µM
CC[C@H](C)[C@H](NC(=O)CNC(=O)[C@@H](NC(=O)[C@H](Cc1ccccc1)NC(=O)[C@H](Cc1ccc(O)cc1)NC(=O)[C@@H]1CCC(=O)NCC(=O)NCC(=O)N[C@@H](C)C(=O)NCC(=O)N[C@@H](CCCCN)C(=O)N[C@@H](C(C)C)C(=O)N2CCC[C@H]2C(=O)N1)C(C)C)C(=O)NCC(=O)N[C@H](C(=O)N1CCC[C@H]1C(=O)N[C@H](C(=O)N[C@@H](CO)C(=O)N[C@@H](Cc1ccccc1)C(=O)N[C@@H](Cc1ccc(O)cc1)C(=O)NCC(=O)O)[C@@H](C)CC)[C@@H](C)O | fhuA (Escherichia coli, UniProt P06971) | binding, native ESI mass spectrometry titration | MG1655 |  |  | Kd | 16.9 ± 0.4 µM
O=C(O)CN(CCN(CC(=O)O)CC(=O)Nc1ccc([As](O)O)cc1)CC(=O)Nc1ccc([As](O)O)cc1 | Protein disulfide-isomerase, reduced (P4HB, Homo sapiens, UniProt P07237) | binding, absorbance titration |  | pH 7.5, 25 °C |  | Kd | 0.054 ± 0.029 µM
